Assay results collected from several papers.
Each line is one published result; not all experiments were run side by side. “And” joins repeats or separate records; there may be more than shown.
Target: Serine/threonine-protein kinase 26 (STK26, Homo sapiens, UniProt Q9P289)

Structure (SMILES)	assay	system	conditions	how to read	measurement	result
CN1CC[C@@H](COc2cnc(C#N)cc2-c2ccn3nc(NC(=O)C4CC4)cc3c2)C1	enzyme activity, inhibitor	–	1 µM	–	inhibition	-9%
C=CC(=O)N1Cc2nc(-c3cc(-c4cc(Cl)cnc4Cl)c(F)cc3F)n(-c3ccncn3)c2C1	cell-free assay, inhibitor	–	1 µM	–	inhibition	12.1%
CCN1CCN(Cc2ccc(C(=O)Nc3ccc(C)c(NCc4cnc5[nH]ccc5c4OC)c3)cc2C(F)(F)F)CC1	binding, competition with immobilised ligand	–	1 µM	–	remaining binding	25%
Cc1cccc(-c2ccc3nc(NC(=O)C4CCCO4)nn3c2)c1 (centres unmarked)	enzyme activity, Dundee kinase panel	–	10 µM	–	remaining activity	82%
N[C@H]1CC[C@H](Nc2nccc(-c3cccnc3Oc3ccc(NC(=O)NC4CC4)c4ccccc34)n2)CC1	kinobead competition pulldown	HEK293/HCT116 lysate mixture	10 µM, 1 h, 4 °C	lower = stronger competition	log2 LFQ intensity	19.6 and 19.7 and 18.6 and 20.1
NC(=O)[C@@H](O)C[C@H]1CCc2sc3ncnc(O[C@H]4CC[C@H](N5CCOCC5)CC4)c3c21	enzyme activity, inhibitor	–	10 µM	–	inhibition	8%
Nc1ncc2c(n1)-c1c([nH]c3ccc(C4=CCOCC4)cc13)CCC2	binding, competition with immobilised ligand	–	1 µM	–	remaining binding	93%
Cc1cccc(O[C@H]2CCC[C@@H](C(C)CNCc3ccncc3)C2)c1 (relative stereo)	enzyme activity, inhibitor	–	1 µM	–	inhibition	6%
CNC(=O)C[C@H](Cc1ccc(C#N)cc1)NC(=O)c1cc(-c2ccc(CN[C@H](C)c3ccc(C)cc3)o2)ccc1Cl	enzyme activity, inhibitor	–	1 µM	–	activity vs control	90%
C=CC(=O)N1CCCC(n2c(=O)c3ncccc3n(Cc3ccc(Oc4ccccc4)cc3)c2=O)C1 (centres unmarked)	cell-free assay, competition with immobilised ligand	–	1 µM	–	remaining binding	92%
Cc1cccc(-c2ccc3nc(NC(=O)C4CCCCC4)nn3c2)c1	enzyme activity, Dundee kinase panel	–	10 µM	–	remaining activity	79%
COc1cc(Nc2nc(C)cc(-c3cnn4nc(OC)ccc34)n2)cc(C(F)(F)F)c1	kinase binding	–	1 µM, MST4	–	percent of control binding	85%
C=CC(=O)Nc1cc(-c2nn(C3CCN(CCNC(=O)[C@H](C)CCC45CC6CC(CC(C6)C4)C5)CC3)c3ncnc(N)c23)ccc1Oc1ccccc1	inhibitor, KiNativ profiling	biochemical	2 µM	–	inhibition	-60%
COc1c(Cl)cccc1Nc1c(-c2ccncc2C#C[C@@]2(C)CCCN2C(=O)/C=C/CN(C)C)[nH]c2c1C(=O)NCC2	binding, competition with immobilised ligand	–	3 µM	–	remaining binding	73%
C=CC(=O)Nc1cccc(-c2cnc3[nH]cc(C(=O)NC(C)(C)C)c3n2)c1	enzyme activity, inhibitor	–	0.1 µM	–	inhibition	32%
CNC(=O)C1CCN(c2cc(C)c(F)cc2NC(=O)c2ccc(-c3cc(O)ccc3C)c(C)c2)CC1	binding, competition with immobilised ligand	–	1 µM	–	remaining binding	95%
O=C(Cc1ccc(OCc2ccccc2)cc1)NC1(C(=O)O)CCN(C(=O)c2ccc(-c3cccc(Cl)c3)cc2)CC1	enzyme activity, inhibitor	–	10 µM	–	activity vs control	102%
